Experimental data from different studies.
Values joined by “and” are separate records of one study, mostly repeats; a detail may differ. ± gives the spread as reported. Values after ≈ are worked out from the molar mass of the structure shown.

Compound	tested on	assay	test system	conditions	scale	measurement	value
CC(=O)NC[C@H]1CN(c2ccc(N3CCOCC3)c(F)c2)C(=O)O1	Staphylococcus	–	MRSE-8, mouse systemic infection	intravenous	survival	ED50	7.99 mg/kg
NC(=O)c1cnc2[nH]ccc2c1N[C@@H]1[C@@H]2CC3C[C@H]1C[C@@](O)(C3)C2	–	flow cytometry	Japanese healthy men, blood	oral, 30 mg twice daily, 72 h after day 7 dose	relative to: baseline	CD4+ central memory change	-0.92%
c1ccc(-c2n[nH]cc2-c2ccnc3ccccc23)nc1	orf19.4144 kinase Candida albicans	MIB/MS competition binding	Candida albicans cell lysate	10 µM	relative to: DMSO, lower = stronger binding	log2 fold change	1.52
CCn1cc(-c2cc(Cn3ccoc3=N)cc3c2CCN([C@@H](C)c2cc(OC)ccn2)C3=O)c(C(F)(F)F)n1	HEC265	cell growth	–	120 h	–	EC50	21 µM
CC(=O)NC[C@H]1CN(c2ccc(N3CCOCC3)c(F)c2)C(=O)O1	Enterococcus faecium	–	HM-952	–	–	MIC	2.96 µM (≈ 0.999 µg/mL)
COc1cnc2cccc(N3CCc4c(cc(Cn5ccnc5C)cc4-c4cn(C)nc4C(F)(F)F)C3=O)c2c1	BT-20	cell growth, inhibitor	–	120 h	–	EC50	2.08 µM
O=C(N1CCc2ccccc21)n1ccnn1	Arabidopsis thaliana	–	wild type, seedlings	3 µM, continuous red light, added: 0.3 µM karrikin KAR2	–	hypocotyl length	9.3 mm
Oc1ccccc1-c1n[nH]cc1-c1ccnc2ccccc12	CKA2 (Candida albicans)	kinase binding, MIB/MS competition	Candida albicans lysate	1 µM	relative to: DMSO	log2 fold change	0.06
Cn1cc(Nc2nccc(-c3ccc4c(c3)CN(C3COC3)CC[C@H]4NC(=O)c3cn(C(C)(C)C)nn3)n2)cn1	–	refers to: Colorectal Cancer Metastasis Signaling	splenic B cells, mouse	in vivo, 30 mg/kg, IgD-activated B cells	relative to: vehicle, positive = activation	pathway activation z-score	2.75
c1coc(-c2n[nH]cc2-c2ccnc3ccccc23)c1	orf19.3456 Candida albicans	kinase binding, MIB/MS competition	Candida albicans lysate	10 µM	relative to: DMSO	log2 fold change	-0.36
O=C(Nc1cc(OCCN2CCCC2)c2ccccc2n1)c1cc(OCCN2CCCC2)cc(C(=O)Nc2cc(OCCN3CCCC3)c3ccccc3n2)n1	Bcl2 G-quadruplex DNA	FRET melting	–	1 µM, pH 7.4, added: 60 mM potassium	–	ΔTm	15.6 ± 1.1 K
N#Cc1ccn2c(-c3ccncc3)c(-c3ccc(F)cc3)nc2c1	orf19.6492 kinase Candida albicans	MIB/MS competition binding	Candida albicans cell lysate	1 µM	relative to: DMSO, lower = stronger binding	log2 fold change	0.21
CCn1cc(-c2cc(Cn3ccnc3)cc3c2CCN([C@H](c2cc(OC)ccn2)C2CC2)C3=O)c(C(F)(F)F)n1	AGS	cell growth, inhibitor	–	120 h	–	EC50	23.9 µM
C[C@H](Oc1ccc(Br)cc1-c1ccon1)C(=O)O	–	first response latency	human, tibialis anterior muscle	50 mg, 15 Hz, single ascending dose	–	difference from placebo	-1.07%
CC(C)n1ncc2c(C(=O)NCC3(C)CNC3)cc(C3CC3)nc21	Enterovirus D68	cytopathic effect	RD, US/IL/14-18952	500 nM	–	cell protection	96.9% and 91.5% and 93.2%
O=C(/C=C/C=C/C=C/C1CCCCC1)NC1=C[C@@](O)(/C=C/C=C/C=C/C(=O)NC2=C(O)CCC2=O)[C@@H]2O[C@@H]2C1=O	NCI-H2052	cell growth, CellTiter-Glo	–	78 h	–	GI50	15.3 µM
O=C(O)CNC(=O)Cc1ccccc1	–	–	ventricular cardiomyocytes, C57BL/6 mouse	dose not given, 0.512 s	–	sarcomere length	1.62 µm
Cn1cc(-c2ccc(-c3cncc(Cl)c3N3CCC4(CCNC4=O)CC3)cc2)cn1	COLO 205	gene expression, microarray, refers to: CCL20 mRNA	–	concentration not given, 6 h	relative to: untreated cells	log2 fold change	-1.57
Cc1n[nH]c2ccc(-c3cc(OC[C@@H](N)Cc4ccccc4)cnc3-c3ccoc3)cc12	orf19.4144 kinase Candida albicans	MIB/MS competition binding	Candida albicans cell lysate	100 nM	relative to: DMSO, lower = stronger binding	log2 fold change	-0.0982
COc1cc(C(=O)NS(=O)(=O)c2ccccc2C)ccc1Cc1cn(C)c2ccc(NC(=O)OC3CCCC3)cc12	native VRAC	ion current, inhibitor, whole-cell patch clamp	wild-type HCT cells	10 µM, pH 6.0, extracellular pH	–	inhibition	78.3% and 78.7% and 68.9% and 42.5% and 67.3%
CN[C@H](CC(C)C)C(=O)N[C@H]1C(=O)N[C@@H](CC(N)=O)C(=O)N[C@H]2C(=O)N[C@H]3C(=O)N[C@H](C(=O)N[C@H](C(=O)O)c4cc(O)cc(O)c4-c4cc3ccc4O)[C@H](O)c3ccc(c(Cl)c3)Oc3cc2cc(c3O[C@@H]2O[C@H](CO)[C@@H](O)[C@H](O)[C@H]2O[C@H]2C[C@](C)(N)[C@H](O)[C@H](C)O2)Oc2ccc(cc2Cl)[C@H]1O	Enterococcus faecium	agar dilution	compound-intermediate	25 isolates	–	MIC50	4 µg/mL (≈ 2.76 µM)
CC(C)NCC(O)c1ccc(O)c(O)c1 (stereo not drawn)	–	–	ventricular cardiomyocytes, C57BL/6 mouse	dose not given, 0.052 s	–	sarcomere length	1.72 µm
N#Cc1ccc2c(-c3ccncc3)c(-c3ccc(F)cc3)nn2c1	orf19.4144 kinase Candida albicans	MIB/MS competition binding	Candida albicans cell lysate	100 nM	relative to: DMSO, lower = stronger binding	log2 fold change	-0.0667
C=C[C@]1(C)C[C@@H](OC(=O)CSCCN(CC)CC)[C@]2(C)[C@H](C)CC[C@]3(CCC(=O)[C@H]32)[C@@H](C)[C@@H]1O	Mycoplasma gallisepticum	–	infected chickens, lung	intramuscular, 40 mg/kg	relative to: 0 h	mycoplasma load reduction	3.09 log10 CFU/mL

Excerpt of the above:
Compound	tested on	assay	test system	conditions	scale	measurement	value
Oc1ccccc1-c1n[nH]cc1-c1ccnc2ccccc12	CKA2 (Candida albicans)	kinase binding, MIB/MS competition	Candida albicans lysate	1 µM	relative to: DMSO	log2 fold change	0.06
Cn1cc(Nc2nccc(-c3ccc4c(c3)CN(C3COC3)CC[C@H]4NC(=O)c3cn(C(C)(C)C)nn3)n2)cn1	–	refers to: Colorectal Cancer Metastasis Signaling	splenic B cells, mouse	in vivo, 30 mg/kg, IgD-activated B cells	relative to: vehicle, positive = activation	pathway activation z-score	2.75
